Assay results of several laboratories.
Protocols differ between the studies behind these lines. Numbers after ± are the reported error.
tmk: Thymidylate kinase (tmk, Mycobacterium tuberculosis, UniProt P9WKE1)
Chain of UniProt P9WKE1 (whole entry, looked up): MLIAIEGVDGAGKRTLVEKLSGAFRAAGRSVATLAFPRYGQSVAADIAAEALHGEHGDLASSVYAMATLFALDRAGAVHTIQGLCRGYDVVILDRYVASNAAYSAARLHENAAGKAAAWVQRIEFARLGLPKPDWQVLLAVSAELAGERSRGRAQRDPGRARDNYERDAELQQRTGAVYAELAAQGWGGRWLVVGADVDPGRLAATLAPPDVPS
USP5: Ubiquitin carboxyl-terminal hydrolase 5 (USP5, Homo sapiens, UniProt P45974)
Chain of UniProt P45974 (whole entry, looked up): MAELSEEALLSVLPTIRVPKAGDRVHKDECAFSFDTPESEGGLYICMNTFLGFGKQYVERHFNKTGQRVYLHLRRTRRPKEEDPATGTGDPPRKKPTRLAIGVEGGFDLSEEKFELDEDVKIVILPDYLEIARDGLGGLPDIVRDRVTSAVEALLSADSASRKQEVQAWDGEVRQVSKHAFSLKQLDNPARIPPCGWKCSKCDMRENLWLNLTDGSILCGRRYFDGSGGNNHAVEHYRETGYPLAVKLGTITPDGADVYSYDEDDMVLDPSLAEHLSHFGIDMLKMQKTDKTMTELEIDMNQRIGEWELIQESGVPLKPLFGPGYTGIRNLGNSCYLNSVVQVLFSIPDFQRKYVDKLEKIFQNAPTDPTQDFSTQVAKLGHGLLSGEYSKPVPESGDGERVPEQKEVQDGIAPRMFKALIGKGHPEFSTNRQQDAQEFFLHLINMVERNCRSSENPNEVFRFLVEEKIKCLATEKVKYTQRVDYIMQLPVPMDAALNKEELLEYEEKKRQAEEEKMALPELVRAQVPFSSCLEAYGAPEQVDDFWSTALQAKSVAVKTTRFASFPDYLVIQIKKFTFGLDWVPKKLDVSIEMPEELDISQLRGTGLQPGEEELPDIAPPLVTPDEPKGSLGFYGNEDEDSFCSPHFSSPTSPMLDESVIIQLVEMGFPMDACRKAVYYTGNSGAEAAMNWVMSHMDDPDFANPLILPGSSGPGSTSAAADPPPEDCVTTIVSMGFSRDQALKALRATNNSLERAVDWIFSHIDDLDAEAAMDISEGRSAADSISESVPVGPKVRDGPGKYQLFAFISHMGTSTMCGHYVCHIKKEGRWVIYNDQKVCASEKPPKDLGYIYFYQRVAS
Chain of UniProt P15273 (whole entry, looked up): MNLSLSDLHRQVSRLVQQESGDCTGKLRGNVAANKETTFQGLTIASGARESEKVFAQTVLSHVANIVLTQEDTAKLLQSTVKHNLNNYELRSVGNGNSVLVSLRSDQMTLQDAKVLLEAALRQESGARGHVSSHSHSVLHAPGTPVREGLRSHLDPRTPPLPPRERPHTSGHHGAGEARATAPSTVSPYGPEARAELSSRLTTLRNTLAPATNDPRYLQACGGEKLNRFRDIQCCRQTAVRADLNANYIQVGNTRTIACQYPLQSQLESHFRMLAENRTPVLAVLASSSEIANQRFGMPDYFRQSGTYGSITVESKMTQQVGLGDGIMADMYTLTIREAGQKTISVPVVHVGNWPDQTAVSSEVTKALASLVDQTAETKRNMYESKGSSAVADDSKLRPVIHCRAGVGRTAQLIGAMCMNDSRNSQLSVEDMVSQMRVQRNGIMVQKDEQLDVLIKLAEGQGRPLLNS
Chain of UniProt Q8TD19 (whole entry, looked up): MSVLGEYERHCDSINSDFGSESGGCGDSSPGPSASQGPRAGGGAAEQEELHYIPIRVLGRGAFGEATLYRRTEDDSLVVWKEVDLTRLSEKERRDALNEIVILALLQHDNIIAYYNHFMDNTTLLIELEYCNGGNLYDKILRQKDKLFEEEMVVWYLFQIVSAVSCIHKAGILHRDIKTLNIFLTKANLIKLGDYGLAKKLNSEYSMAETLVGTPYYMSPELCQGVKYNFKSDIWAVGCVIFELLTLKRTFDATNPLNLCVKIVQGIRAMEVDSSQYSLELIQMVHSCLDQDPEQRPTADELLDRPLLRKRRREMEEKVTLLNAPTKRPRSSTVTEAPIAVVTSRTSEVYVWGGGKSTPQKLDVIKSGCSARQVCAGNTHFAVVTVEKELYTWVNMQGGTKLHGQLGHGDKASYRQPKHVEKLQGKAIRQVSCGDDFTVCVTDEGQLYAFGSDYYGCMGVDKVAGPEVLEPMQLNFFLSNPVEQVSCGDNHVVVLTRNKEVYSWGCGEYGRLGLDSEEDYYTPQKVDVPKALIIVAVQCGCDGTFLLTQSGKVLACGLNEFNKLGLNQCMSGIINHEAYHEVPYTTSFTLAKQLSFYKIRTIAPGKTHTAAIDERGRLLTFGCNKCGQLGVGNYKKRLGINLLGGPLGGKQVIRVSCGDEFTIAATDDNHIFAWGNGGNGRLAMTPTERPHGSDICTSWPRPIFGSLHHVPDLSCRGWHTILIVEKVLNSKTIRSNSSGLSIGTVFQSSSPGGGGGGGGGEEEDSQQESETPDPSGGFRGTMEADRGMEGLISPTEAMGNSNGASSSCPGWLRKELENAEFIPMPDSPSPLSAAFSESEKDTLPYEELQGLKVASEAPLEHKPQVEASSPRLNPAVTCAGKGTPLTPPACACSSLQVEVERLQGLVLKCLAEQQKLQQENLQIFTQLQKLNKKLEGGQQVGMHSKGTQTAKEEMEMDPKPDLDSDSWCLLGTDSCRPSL
Chain of UniProt Q86Z02 (whole entry, looked up): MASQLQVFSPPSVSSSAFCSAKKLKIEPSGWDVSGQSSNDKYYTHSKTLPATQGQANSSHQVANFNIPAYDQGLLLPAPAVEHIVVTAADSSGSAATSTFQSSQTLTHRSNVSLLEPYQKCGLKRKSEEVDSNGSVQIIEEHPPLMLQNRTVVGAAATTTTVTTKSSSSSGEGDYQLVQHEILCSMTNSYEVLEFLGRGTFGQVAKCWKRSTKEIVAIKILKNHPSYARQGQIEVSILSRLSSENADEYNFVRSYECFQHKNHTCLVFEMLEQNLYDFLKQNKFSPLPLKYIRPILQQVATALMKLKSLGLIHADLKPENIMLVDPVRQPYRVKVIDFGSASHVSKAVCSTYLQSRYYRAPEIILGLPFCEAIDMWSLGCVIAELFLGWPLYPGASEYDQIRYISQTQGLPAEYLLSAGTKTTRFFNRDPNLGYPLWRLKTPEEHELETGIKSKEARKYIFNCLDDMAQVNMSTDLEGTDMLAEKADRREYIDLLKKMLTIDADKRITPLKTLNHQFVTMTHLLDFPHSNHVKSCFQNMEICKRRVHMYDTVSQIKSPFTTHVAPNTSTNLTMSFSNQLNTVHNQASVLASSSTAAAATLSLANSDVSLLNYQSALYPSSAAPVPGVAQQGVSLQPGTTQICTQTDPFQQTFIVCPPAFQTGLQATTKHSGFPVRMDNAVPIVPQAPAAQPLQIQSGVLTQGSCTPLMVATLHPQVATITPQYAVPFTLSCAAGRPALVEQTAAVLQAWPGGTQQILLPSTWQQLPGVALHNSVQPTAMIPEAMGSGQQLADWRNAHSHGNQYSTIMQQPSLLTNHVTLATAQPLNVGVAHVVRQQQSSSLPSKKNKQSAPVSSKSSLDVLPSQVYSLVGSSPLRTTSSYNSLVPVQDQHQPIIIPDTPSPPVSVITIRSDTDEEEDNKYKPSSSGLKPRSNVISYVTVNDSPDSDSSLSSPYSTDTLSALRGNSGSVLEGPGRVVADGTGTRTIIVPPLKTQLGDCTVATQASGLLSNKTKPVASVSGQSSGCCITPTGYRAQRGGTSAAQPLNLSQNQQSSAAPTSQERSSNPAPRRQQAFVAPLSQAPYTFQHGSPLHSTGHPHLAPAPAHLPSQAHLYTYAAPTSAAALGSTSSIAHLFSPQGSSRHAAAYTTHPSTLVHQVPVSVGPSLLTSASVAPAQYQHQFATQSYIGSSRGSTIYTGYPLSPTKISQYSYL
Chain of UniProt Q00535 (whole entry, looked up): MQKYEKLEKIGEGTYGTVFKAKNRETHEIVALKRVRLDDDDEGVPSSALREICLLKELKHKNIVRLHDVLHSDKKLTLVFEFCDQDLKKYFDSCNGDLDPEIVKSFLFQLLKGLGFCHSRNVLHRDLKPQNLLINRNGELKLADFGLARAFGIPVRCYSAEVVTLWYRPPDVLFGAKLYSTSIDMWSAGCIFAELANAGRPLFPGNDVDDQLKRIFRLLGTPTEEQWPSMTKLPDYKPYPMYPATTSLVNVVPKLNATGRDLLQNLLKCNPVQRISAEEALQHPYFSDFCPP
Chain of UniProt P32245 (whole entry, looked up): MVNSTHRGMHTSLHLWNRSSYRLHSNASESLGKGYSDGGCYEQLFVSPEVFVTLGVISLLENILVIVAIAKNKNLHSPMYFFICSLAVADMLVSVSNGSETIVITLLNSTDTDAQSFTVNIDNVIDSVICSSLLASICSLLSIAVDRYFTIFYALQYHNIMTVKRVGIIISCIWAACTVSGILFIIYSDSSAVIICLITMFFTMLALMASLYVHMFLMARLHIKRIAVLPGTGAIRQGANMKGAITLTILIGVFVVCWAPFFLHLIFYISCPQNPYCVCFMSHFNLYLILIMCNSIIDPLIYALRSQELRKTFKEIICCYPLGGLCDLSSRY

O=C(Nc1ccc(C(F)F)cc1)[C@H](CC1CCCCC1)Nc1nn2c(=O)ccnc2s1  inhibition (Tyrosine-protein phosphatase YopH (Yersinia enterocolitica, UniProt P15273); enzyme activity, inhibitor; 10 µM): 2%
O=C(NC1CCN(c2ncnc3[nH]cnc23)CC1)c1cccc(NS(=O)(=O)c2ccc(C(F)(F)F)cc2)c1  inhibition (Replicase polyprotein 1ab, nsp14 (rep, Human coronavirus 229E, UniProt P0C6X1); enzyme activity; 200 µM): 96.6%
Cc1sc2c(c1C)C(c1ccc(Cl)cc1)=NC(CC(=O)OC(C)(C)C)c1nnc(C)n1-2 (stereo not shown)  inhibition (MC4R (Homo sapiens, UniProt P32245); ligand displacement, radioligand; 1 µM): 0%
CCOC(=O)C1=C(C)NC(=NN=C2C(=O)Nc3ccc(C)cc32)NC1c1ccc(F)cc1 (stereo not shown)  inhibition (tmk; enzyme activity, inhibitor, absorbance; 0.01 µg/mL): 38.3%
CS(C)(=O)=Nc1ccc(-c2ccc(-c3nc4cc(O[C@@H]5CO[C@H]6[C@@H]5OC[C@H]6O)[nH]c4cc3F)cc2)cc1  inhibition (HIPK1 (Homo sapiens, UniProt Q86Z02); enzyme activity, inhibitor; 10 µM): 11%
Cc1cn(C2CC(O)C(COP(=O)(O)O)O2)c(=O)[nH]c1=O (stereo not shown)  inhibition (tmk; enzyme activity, inhibitor, absorbance; 0.01 µg/mL): 41.8%
CC(C)(C)N1C(=O)NC(=O)C(=Cc2ccccc2Cl)C1=O  inhibition (USP5; enzyme activity, inhibitor; 17 µM): 27%
O=C1NC2(CC2)COc2ncc(F)cc2[C@H]2COCCN2c2ccn3ncc1c3n2  serum total bilirubin (Sprague-Dawley rat, female, serum; oral, 10 mg/kg/day, end of treatment, 4-week subacute toxicity): 0.7 ± 0.3 µmol/L
CCOC(=O)C1=C(C)NC(=NN=C2C(=O)Nc3ccccc32)NC1c1ccc(F)cc1 (stereo not shown)  inhibition (tmk; enzyme activity, inhibitor, absorbance; 1 µg/mL): 55.6%
O=C1NC(=S)NC(=O)C1=C/C=C/c1ccco1  inhibition (USP5; enzyme activity, inhibitor; 17 µM): 45%
O=C1NC(=O)c2c1c1cc(F)c[n+]3c1c1c2c2cc(O)ccc2[n]1[Ru-4]312([N]=C=S)[S+]3CC[S+]1CC[S+]2CC3 (stereo not shown)  remaining activity (Cyclin-dependent kinase 5, with p35 (CDK5, Homo sapiens, UniProt Q00535); enzyme activity; 100 nM, human enzyme, together with: 10 µM ATP; reference: untreated): 58%
O=C1NC(=O)C(C2(O)C(=O)c3ccccc3C2=O)C(=O)N1  inhibition (USP5; enzyme activity, inhibitor; 17 µM): 97%
CN(C)[C@H]1C[C@@]23CC[C@@]4(O2)C(=CC[C@]2(C)[C@@H](c5ccc6ccncc6c5)CC[C@H]24)C=C3[C@@H](O)[C@@H]1O  inhibition (NEK9 (Homo sapiens, UniProt Q8TD19); ATP probe labelling, inhibitor, KiNativ profiling; 1 µM): 3.1%

For quick reference, copied from above:
CS(C)(=O)=Nc1ccc(-c2ccc(-c3nc4cc(O[C@@H]5CO[C@H]6[C@@H]5OC[C@H]6O)[nH]c4cc3F)cc2)cc1  inhibition (HIPK1 (Homo sapiens, UniProt Q86Z02); enzyme activity, inhibitor; 10 µM): 11%
